Measurements gathered from unrelated publications.
Numbered parts are unrelated; each lists some results of a single study. Substitutions count along the parent as printed.

Study 1
Target: RNA binding protein fox-1 homolog 2, RRM domain, GST-SBP tag (RBFOX2, Homo sapiens, UniProt O43251-10, residues 100-194)
Method: RNA Bind-n-Seq
Molecule type: RNA
Sample: in vitro
Tested at: 365 nM
Notes: natural RNA segment, single round, ends assumed
Baseline: no-protein control
Direction: higher = stronger binding
Constant ends, left off below: GGGAGUUCUACAGUCCGACGAUC … UGGAAUUCUCGGGUGCCAA
| Strand | RBNS enrichment (R) |
| --- | --- |
| UCUGCAUCCCCCAUCACCUCAUAGAAGACUCUUUGUUGAUCAUUGUAUGUUAAUAAUGUAUAAAAUGGCUAUCUUGUAAGCGUGCUGUCCUGGUACUAGUGUAGCGACUU | 0.889 |
| GUUCCCUUUAGAAAACCUGCCCUGGGAAAAGACUUCUUGGUUUUGAGGAAGAUCCUUGGUUAGCGAUGAUCUUGGAGGUGGACUAAGUCCAGAGCCAUCCCUGAAGCCAG | 0.406 |
| GACAGUCACCCUCCCUCUGCUGGGAUGAGGUCCAGGAGCCAACUAAAACAAUGGCAGAGGAGACAUCUCUGGUGUUCCCACCACCCUAGAUGAAAAUCCACAGCACAGAC | 0.397 |
| AAGCAUAUGAUAUUGGUUUUAAUAUAUUUACCAAAAGUACUAUUGCUUGGAUAUAAAAUCACUGAGCUGUUUCCGGUUCUCUCUAAGUUUGGGAAUCCUAUGUGUAUUUA | 0.506 |
| AGGGUUAGGCAAAUGGGGGACCUUCCUGUGUGCUCUUGGGGGUCUGCUCAGCAUCUGGAAAUUUGGGUGUGCGAUUUUCCCUGAACACAUUGCAUACCAGUGUAAAAAGA | 1.13 |
| ACAGAAACGUGGCAUCAUUUGGGAAGAACCAAGGUAGAAUUUAAUUUUCUGGACUUUAAAUCUCCUGGUUAAAUAAUGCUAAUCACUGUACCAUUUGAGUUACAUGUUUU | 0.546 |
| AAACAAUCCCGACAAUCCCUUAUCCCUACCCCAACCCUUUGCGGCUCUGUACACAUUUUUAAACCUGGCAAAAGAUGAAGAGAAUAUUGUAAAUAUAAAAGUUUAACUGU | 0.735 |
| CAAAUCCUUUAUUAUUAUUAUAAUUAUUUUUUUGCGUGAAAGUGUUACAUAUUCUUUCACUUGUAUGUACAGAGAGGUUUUCUGAAUAUUUAUUUUAAGGGUUAAAUCAC | 4.05 |
| GGGUUCUUUCCCCUCCCUCUCAUGAGAGUAAAGUCCCCAGCAGAUUUGAGUGAGUCAGGGGAAACACCCUCUUCCUACUUACACUUGUCUCGCCCACCCCCCAUUCUCUC | 0.463 |
| ACAUGUGACUCUUCUCCGUGACUCUAUAAAGACCUAGCAGAGCAUGUGAGCAUUCUCAAACAAGAGACUAACUGAUGCUCCUGCUGUUAAAAAGGCAGAACUAGGGAGGU | 0.4 |
| AGAAUAAAAUGAGAAUUCUUCAGUUAUAUUUUGUACUAUGGUUUAGGGCUAUGACUAAUAUUUCAGGCCAUUUCCGGUGAAAGAAACUUAGUUUUACAAGAAAAACCAUU | 0.538 |
| UUUUAGGACUUAGCAGAGCUGAGAGCCCUUUGUUGCUCAAUGCUGUGAGCCUUAAGCAUGUGAAUCCCCCCACAUGACAAGUGGGGAGACCCAGGGUAGGCUUUCCUUUG | 2.7 |

Study 2
Target: CCND2, cyclin fold, Cln2 fusion (human)
Method: yeast growth competition, sequencing
Sample: yeast
Notes: weak parent motif
Baseline: not given
Direction: higher = stronger binding
Starting sequence: CDC42EP1 docking peptide (human); SLVVGKLSFDSSP
| Change | normalised enrichment score |
| --- | --- |
| V4A | 0.0582 |
| S11A | 0.103 |
| S12A | 0.452 |
| P13A | -0.123 |
| F9A | -0.0512 |
| S8A | 0.112 |
| K6A | -0.142 |

Study 3
Target: Hepatocyte nuclear factor 3-alpha (Foxa1, Mus musculus, UniProt P35582, residues 1-468, full length assumed)
UniProt P35582, sequence (whole entry, looked up): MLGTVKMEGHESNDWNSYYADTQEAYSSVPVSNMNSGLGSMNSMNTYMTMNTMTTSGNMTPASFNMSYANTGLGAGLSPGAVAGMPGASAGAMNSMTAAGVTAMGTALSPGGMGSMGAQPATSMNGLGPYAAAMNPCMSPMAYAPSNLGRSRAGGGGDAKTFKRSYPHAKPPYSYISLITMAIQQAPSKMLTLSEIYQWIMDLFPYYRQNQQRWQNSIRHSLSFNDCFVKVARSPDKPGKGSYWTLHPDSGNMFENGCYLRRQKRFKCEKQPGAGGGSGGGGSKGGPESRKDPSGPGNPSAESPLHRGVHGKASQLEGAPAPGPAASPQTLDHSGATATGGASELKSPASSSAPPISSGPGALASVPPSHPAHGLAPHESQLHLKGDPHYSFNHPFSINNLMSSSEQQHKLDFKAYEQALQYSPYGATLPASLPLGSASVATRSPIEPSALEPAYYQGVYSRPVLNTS
Method: EMSA with sequencing
Molecule type: double-stranded DNA, one strand shown
Sample: in vitro
Tested at: 10 and 20 nM
Notes: whole designed probe, mean of two concentrations, ends assumed
Baseline: negative control set to 0
Direction: higher = stronger binding
Constant ends, left off below: GTGAGCGGTGCCCATTGATGGGGAAC … TTTCACTGGGATCGTGGGGAC
| Strand | normalised bound fraction [ratio] |
| --- | --- |
| GGCACCTGCCCTTCTGGCAACTTCTTGGAAACAGTTGGCAGTGTTTGCTTCCTGACTCCTAGCAGGCCGCTGGGGTGCAGCTATTGTGTTTAAGTAATCTGGCCACTCGCCTATTCAGCTTGGCAGCTTGATAGATGCCTACGCCTAGATCTTGTCAAATCGGTTTGTGGTTGAGTGGCTGCCAGGCCTAGAG | 0.000562 |
| ATCTTCCCCCTCTTCCTTGCCCCACCAGCTCACCTTCCCGGGTTATTTGCAGATAGGAAAATAAATAAAGCCGGCATTCGTTAACCCTCTTCTGGCGCAAACTGCTGTTTGCTCTGGATGAATCATGGTCCTTTGGCGACGCCAGCCTGGGACGGAGCAAAGCACCGTGTCAGGGCCATGATCCGGGGTGGCC | 0.345 |
| CCACACTGGACAATACTGCATTGTACACCTAAAATTCCATTAAGAGGGTAGATCTCATGTAAAGTATTTACAACACAAGAAAATTTTTTAAAGAGATTACATATTTAATAAATACTTTTTTCTATTTCTTAGCATACAGCACCAATGTAATTTAATATTAATTATAGCATCCACAGTTAAATTTCTCAATATT | 0.00346 |
| TGAGCCCTTGAATTTCCAATTTTCCCTTTGTCTCCCATTCTTAATATTTCTCAAAAAAATTCAATTATTCCCTCTCTTAAAATAAACTCAATGTAATCTGGGTATATAAACTATGGATCACAATTGAATGAAACATTCTGCAAATATTGAAAATTATCTGTCTAATCTATATATTGATGATAGGAAATGTATT | 0.0655 |
| GCCTTGTTCAATTCTAGAATTTAATCTAGGATGACCCATTGTTTCTATTTGTCACATCTGTTTAGACTTCTCTGGTCTATGACAATTTCTCAGTGTTTGCTTATTTTTCATGACTTCATAGTTTTGAGGAGTACTCATCAGGTATTTTGTGAAATGTCCCTCAATTTGTATTTGTCTTATGTTTTCTCATAAT | 0.282 |
| ATTGAAGAACAAACAGCTATTGCCCAGCCCAGAAAGAGCCACCTCTTGGTAACTCCTGTGTGTGACATAAACTCATACCAGCAGTATCACAGAGCAATCTGCATAAACTCTGAATGCCACTCACAAATTGCTTTGCCAATAATAGTTCCAGGATGTACTGTTCTTCCAATGGGCTTAACAAACATTTCGATGC | 0.126 |
| TTAACACTGTTCACTTGTATCAACATTTTACTACTTTGAGTAAAGTGTAAAAACCTATAGGTTCCTTTACCTCCTCCTTATAATTCTCTTAAAAAATTACTCACATACTTTGAGAACCATATCACACAGTATTATAATTTTTGCTTTGACCATCAAATATAATTTAGAAAATCCAACAGGATAGTTTATATTT | 0.043 |
| ATCTTCCCCCTCTTCCTTGCCCCACCAGCTCACCTTCCCGGGTTATTTGCACAAAGGAAAATAAATAAAGCCGGCATTCGTTAACGCAGTTCACGCGCATACTGCTGTTTGCTCTGGATGAATCATGGTCCTTTGGCGAGGCGTGGCTCCGGGAGAGCAAAGCACCGTGTCAGGGCCATGATCCGGGGTGGCC | 0.365 |

Study 4
Target: Centromere-binding protein 1, full length, N-terminal tag (CBF1, Saccharomyces cerevisiae, UniProt P17106, residues 1-351)
UniProt P17106, sequence (whole entry, looked up): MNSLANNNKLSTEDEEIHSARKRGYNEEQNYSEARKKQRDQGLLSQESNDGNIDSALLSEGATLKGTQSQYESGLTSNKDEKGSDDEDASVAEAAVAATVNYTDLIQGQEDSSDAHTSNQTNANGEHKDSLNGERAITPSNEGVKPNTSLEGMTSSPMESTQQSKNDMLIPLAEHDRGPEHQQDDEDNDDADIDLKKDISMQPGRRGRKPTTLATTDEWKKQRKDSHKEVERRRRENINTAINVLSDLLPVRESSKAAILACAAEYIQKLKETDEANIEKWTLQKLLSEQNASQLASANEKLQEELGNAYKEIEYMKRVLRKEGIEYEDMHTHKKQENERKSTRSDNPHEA
Method: protein-binding microarray
Molecule type: double-stranded DNA, one strand shown
Sample: in vitro
Tested at: 0.8 µM
Notes: whole 60-bp probe, no competitor
Direction: higher = stronger binding
Constant ends, left off below: … GTCTTGATTCGCTTGACGCTGCTG
| Strand | fluorescence intensity [a.u.] |
| --- | --- |
| CTATTTTTAGGACGTGACCAAATGCGAGCTGCATTC | 2360 |
| TGTACGAAGCTATTGCAGGTGTTTATAGTAGTTAGG | 553 |
| CTATTTCCTTTTTGCCTCGTGATGTTCAAGAAGTTC | 1750 |
| CTACGACGCCGTAGTCGCGTGCCCTTGCCCTTATTC | 722 |
| GAAAGCTATTTAAACCCCATCACGTTGATTGTCTAG | 1050 |
| GAAGATCCAGAGGAAAACGCCACCTCTAATGCATAG | 496 |
| GAAATTTTTGTATAATTGGTGGTGTAACGTGGATAG | 585 |
| GAAATGACAATGCAGCACGTGGGAGACAAATAGTAG | 5860 |
| CCTAACTACTATAACGTGTCAGCATAGCTTCGTACA | 595 |
| CCTAACTACTATAATCACGGCTCATAGCTTCGTACA | 538 |
| CTAGACATTCTGGCCAACGTGCATTCGACGGAATTC | 590 |
| GAATTCCTTTTTGGCAGCATGATGCAACCACATTAG | 522 |
| CTAGACTTACTATACCTGACGGTCCACGGGGTTTTC | 955 |
| CTACCCCGGTTGAGTGATGTTAACGATGTTTACTTC | 470 |
| GAAAACAAAGTTTATCACGTTGTTGGTACTTAGTAG | 1290 |
| CCTAACTACTATATTCACGAGTTATAGCTTCGTACA | 534 |
| CTACATACATAAATACACACGCATTATTGTTTCTTC | 558 |
| GAAAAAAGTAGTTGTCACGTATGTGTCAAATATTAG | 577 |
| GAATGGGGACCAATGATCATTTATGTACTATATTAG | 524 |
| GAAAACAATTGAAGAGACGTGACTAATGCTATGTAG | 799 |
| CTAACAAACGGGGCACACGTGCGGGAGTTTCAATTC | 4220 |
| GAAATATTTAAAATACGTGTGATAGTACTATTTTAG | 531 |
| CTACGTTATAGAACACAGGAGACGCTTGCATTATTC | 519 |
| GAACGTGGAGCGCTTCACGTGAAAAGAGTGGCCTAG | 2290 |
| TGTACGAAGCTATAGCACGTCAATATAGTAGTTAGG | 490 |

Repeated from above (study 2):
| Change | normalised enrichment score |
| --- | --- |
| F9A | -0.0512 |
| K6A | -0.142 |
| S8A | 0.112 |
| S11A | 0.103 |
| V4A | 0.0582 |
